Results gathered from unrelated publications.
Lines come from different studies, so protocols differ. Numbers after ± are the reported error.
Cell line: HCT-15

SMILES | observed | method | time | setting | IC50 [µM]
O=[C]=[Mn-2]12(=[C]=O)(=[C]=O)[O]c3cc4c(cc3=[N+]1CCc1ccccc1)[O][Mn-2](=[C]=O)(=[C]=O)(=[C]=O)([N+]=4CCc1ccccc1)[n+]1ccc(cc1)C(=O)OCCOC(=O)c1cc[n+]2cc1 | cell growth | MTT | 48 h | LED light photolysis 1 h | 2.03 ± 0.27
COc1cc(S(=O)(=O)Oc2ccc3[nH]c(C)cc3c2)cc(OC)c1OC | cell growth or viability | – | 72 h | – | 0.00371
CC(=O)[O][Pt]([NH2])([NH2])([Cl])([Cl])[O]C(=O)CCCc1ccccc1 | cell growth or viability | MTT | 72 h | – | 4.52
Cc1ccc(C(C)C)cc1.Cc1ccc(C(C)C)cc1.Cc1ccc(C(C)C)cc1.Cc1ccc(C(C)C)cc1.O=S(=O)(O)C(F)(F)F.O=S(=O)(O)C(F)(F)F.O=S(=O)(O)C(F)(F)F.O=S(=O)(O)C(F)(F)F.c1ccc2c3c4ccccc4c(c2c1)-c1cn(nn1)-c1cc[n+](cc1)[Ru-]1[O]C2=[O+][Ru-]([O]C2=[O+]1)[n+]1ccc(cc1)-n1cc(nn1)-c1c2ccccc2c(c2ccccc12)-c1cn(nn1)-c1cc[n+](cc1)[Ru-]1[O]C2=[O+][Ru-]([O]C2=[O+]1)[n+]1ccc(cc1)-n1cc-3nn1 | cell growth or viability | MTT | 24 h | – | > 20
CC(=O)Oc1ccccc1C(=O)[O][Pt]([NH2])([NH2])([Cl])([Cl])[O]C(C)=O | cell growth or viability | MTT | 72 h | – | 4.53
CCCC[N+]1=c2cc3c4cc2[O][Mn-2]1(=[C]=O)(=[C]=O)(=[C]=O)[n+]1ccc(cc1)C(=O)OCCOC(=O)c1cc[n+](cc1)[Mn-2](=[C]=O)(=[C]=O)(=[C]=O)([O]3)[N+]=4CCCC | cell growth | MTT | 48 h | LED light photolysis 1 h | 3.99 ± 0.63
CC(C)c1ccc(N(C)c2ccc3c(c2)OCC[C@H]3CNc2cnccc2C(=O)O)cc1 | cell growth or viability | ATP luminescence | 7 days | – | 0.00179
Cc1ccc(C(C)C)cc1.Cc1ccc(C(C)C)cc1.Cc1ccc(C(C)C)cc1.Cc1ccc(C(C)C)cc1.O=S(=O)(O)C(F)(F)F.O=S(=O)(O)C(F)(F)F.O=S(=O)(O)C(F)(F)F.O=S(=O)(O)C(F)(F)F.c1ccc2c3c4ccccc4c(c2c1)-c1cn(nn1)-c1cc[n+](cc1)[Ru-]1[O]c2c4ccccc4c4c5c(c6ccccc6c(c25)=[O+]1)=[O+][Ru-]([O]4)[n+]1ccc(cc1)-n1cc(nn1)-c1c2ccccc2c(c2ccccc12)-c1cn(nn1)-c1cc[n+](cc1)[Ru-]1[O]c2c4ccccc4c4c5c(c6ccccc6c(c25)=[O+]1)=[O+][Ru-]([O]4)[n+]1ccc(cc1)-n1cc-3nn1 | cell growth | MTT | 24 h | 20 µM preincubated in medium 0 h at 37 °C | 7.1 ± 0.74
O=[C]=[Mn-2]12(=[C]=O)(=[C]=O)[O]c3cc4c(cc3=[N+]1CCc1ccccc1)[O][Mn-2](=[C]=O)(=[C]=O)(=[C]=O)([N+]=4CCc1ccccc1)[n+]1ccc(cc1)C(=O)Nc1ccccc1NC(=O)c1cc[n+]2cc1 | cell growth | MTT | 48 h | LED light photolysis 1 h | 1.97 ± 0.19
Cc1ccc([N+](=O)[O-])cc1S(=O)(=O)N(C)/N=C/c1cnc2ccc(Br)cn12 | cell viability | MTS | – | – | 0.008
CCCC[N+]1=c2cc3c4cc2[O][Mn-2]1(=[C]=O)(=[C]=O)(=[C]=O)[n+]1ccc(cc1)C(=O)NCCNC(=O)c1cc[n+](cc1)[Mn-2](=[C]=O)(=[C]=O)(=[C]=O)([O]3)[N+]=4CCCC | cell growth | MTT | 48 h | LED light photolysis 1 h | 4.43 ± 0.62
Cc1ccc(C(C)C)cc1.Cc1ccc(C(C)C)cc1.Cc1ccc(C(C)C)cc1.Cc1ccc(C(C)C)cc1.O=S(=O)(O)C(F)(F)F.O=S(=O)(O)C(F)(F)F.O=S(=O)(O)C(F)(F)F.O=S(=O)(O)C(F)(F)F.c1ccc2c3c4ccccc4c(c2c1)-c1cn(nn1)-c1cc[n+](cc1)[Ru-]1[O]c2cc4c(cc2=[O+]1)[O][Ru-]([O+]=4)[n+]1ccc(cc1)-n1cc(nn1)-c1c2ccccc2c(c2ccccc12)-c1cn(nn1)-c1cc[n+](cc1)[Ru-]1[O]c2cc4c(cc2=[O+]1)[O][Ru-]([O+]=4)[n+]1ccc(cc1)-n1cc-3nn1 | cell growth or viability | MTT | 24 h | – | > 20

A few entries again:
SMILES | observed | method | time | setting | IC50 [µM]
Cc1ccc(C(C)C)cc1.Cc1ccc(C(C)C)cc1.Cc1ccc(C(C)C)cc1.Cc1ccc(C(C)C)cc1.O=S(=O)(O)C(F)(F)F.O=S(=O)(O)C(F)(F)F.O=S(=O)(O)C(F)(F)F.O=S(=O)(O)C(F)(F)F.c1ccc2c3c4ccccc4c(c2c1)-c1cn(nn1)-c1cc[n+](cc1)[Ru-]1[O]c2c4ccccc4c4c5c(c6ccccc6c(c25)=[O+]1)=[O+][Ru-]([O]4)[n+]1ccc(cc1)-n1cc(nn1)-c1c2ccccc2c(c2ccccc12)-c1cn(nn1)-c1cc[n+](cc1)[Ru-]1[O]c2c4ccccc4c4c5c(c6ccccc6c(c25)=[O+]1)=[O+][Ru-]([O]4)[n+]1ccc(cc1)-n1cc-3nn1 | cell growth | MTT | 24 h | 20 µM preincubated in medium 0 h at 37 °C | 7.1 ± 0.74
